Experimental data collected from several papers.
Every numbered part comes from another study and shows a few of its results, in no order. Changes are numbered by the printed parent chain.

Series 1
Target: Interferon regulatory factor 5, full length, phosphomimetic (IRF5, Homo sapiens, UniProt Q13568-2, residues 1-514, K96S/S451D/S453D/S456D/S462D)
Technique: protein-binding microarray
Molecule type: double-stranded DNA, one strand shown
Sample: in vitro
Concentration: 250 nM
Setting: 60-bp whole probe
With: salmon DNA 0.4 mg/ml
Baseline: random background probes
Reading: higher = stronger binding
Shared flanks, not repeated: GCCTAGCAC … GTCTTGATTCGCTTGACGCTGCTG
| Strand | log fluorescence |
| --- | --- |
| GTCGGTTCCCTTTTCCTGACGTGCTAG | 0.778 z-score |
| TTAGCTATCAGTTTCGATTAGTGCTAG | 9.62 z-score |
| AAACCATCCTGTATGGATGTGTGCTAG | -0.0922 z-score |
| TAAGATTTCAGTTCCGATTAGTGCTAG | 2.39 z-score |
| GACGGTTCCGGTTTCGGCACGTGCTAG | 5.05 z-score |
| TTAGATATCATTATCGATTAGTGCTAG | 6.71 z-score |
| TCATATCTAAGATTCTAACTGTGCTAG | 0.439 z-score |
| TTAGGTTCCCTTTTCCTTCAGTGCTAG | 0.767 z-score |
| GTGTTACTAAAATTTCATGAAGTGCTA | 0.607 z-score |

Series 2
Target: ABI1, truncated, D143A, DHFR fusion (Arabidopsis thaliana)
Technique: DHFR PCA, deep sequencing
Sample: yeast
Setting: methotrexate growth selection, single substitutions
With: (+)-ABA 200 µM
Baseline: wild-type fitted maximum
Reading: higher = stronger binding
Starting sequence: PYL1, truncated, DHFR fusion (Arabidopsis thaliana); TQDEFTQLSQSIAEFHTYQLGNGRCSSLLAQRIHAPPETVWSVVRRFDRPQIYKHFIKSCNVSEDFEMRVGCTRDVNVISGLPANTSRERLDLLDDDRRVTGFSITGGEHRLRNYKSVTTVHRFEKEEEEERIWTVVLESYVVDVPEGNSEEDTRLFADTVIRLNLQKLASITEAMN; partner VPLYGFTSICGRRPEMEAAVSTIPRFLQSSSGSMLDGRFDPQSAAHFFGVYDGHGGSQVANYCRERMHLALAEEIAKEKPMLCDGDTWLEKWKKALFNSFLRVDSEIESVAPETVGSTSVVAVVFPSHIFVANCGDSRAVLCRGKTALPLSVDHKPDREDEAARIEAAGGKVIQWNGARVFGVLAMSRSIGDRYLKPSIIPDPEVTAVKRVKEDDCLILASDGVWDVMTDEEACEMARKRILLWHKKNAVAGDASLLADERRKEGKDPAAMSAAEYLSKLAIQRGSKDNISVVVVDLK
| Change | relative binding score |
| --- | --- |
| D65C | 96.4% |
| E125V | 103% |
| Y53F | 91.1% |
| R46G | 74.1% |
| E89F | -11.4% |
| E38F | 60% |
| S11D | 98.7% |
| R99N | 97% |

Series 3
Target: CCNA1, cyclin fold, Cln2 fusion (human)
Technique: yeast growth competition, sequencing
Sample: yeast
Setting: weak parent motif
Baseline: not given
Reading: higher = stronger binding
Starting sequence: SCAPER docking peptide (human); SNARRSLNFGGST
| Change | normalised enrichment score |
| --- | --- |
| SNAQRSLNFGGST [R4Q] | 0.0779 |
| SNARRSLNFGGSS [T13S] | 0.635 |
| SNARRSLGFGGST [N8G] | 0.317 |
| SNARRSLNWGGST [F9W] | 0.983 |
| SNARRCLNFGGST [S6C] | 0.747 |
| SNARRSLNFGGSW [T13W] | 0.427 |
| SNARRSLNFGGSE [T13E] | 0.703 |
| SNARRSLEFGGST [N8E] | 0.654 |
| SNARRSLNFGGSI [T13I] | 0.594 |
| SNARRSLYFGGST [N8Y] | 0.406 |

Single results of other studies
| Substance | target | assay | test system | setting | scale | measurement | result |
| --- | --- | --- | --- | --- | --- | --- | --- |
| PhoQ, residues 284 288 289 292 302 303 SLGVVW | PhoP, residues 12 14 15 18 19 NQGLL (Escherichia coli, UniProt P23836) | Sort-seq, item: YFP reporter | E. coli | PhoQ-PhoP variant library, with: 10 µM Mg2+ | baseline: high Mg2+ state, higher = stronger signaling | fold induction | 12.8 |

A few entries again (series 3):
| Change | normalised enrichment score |
| --- | --- |
| SNAQRSLNFGGST [R4Q] | 0.0779 |
| SNARRSLGFGGST [N8G] | 0.317 |
| SNARRSLYFGGST [N8Y] | 0.406 |
| SNARRSLNFGGSS [T13S] | 0.635 |
| SNARRSLNFGGSE [T13E] | 0.703 |
